# Results collected from several papers.
# Compare with care: the assays were run in different laboratories.
# Organism: Escherichia coli
SMILES,assay,test system,setting,scale,MIC
COc1ccc(CCNc2cc(-c3ccccc3)nc3ncnn23)cc1,broth microdilution,3,,,> 64 µM
CC[C@H](C)[C@H](NC(=O)[C@H](CCCN)NC(=O)[C@H](CC(N)=O)NC(=O)[C@H](Cc1c[nH]c2ccccc12)NC(=O)[C@H](Cc1ccccc1)NC(=O)[C@H](CCCN)NC(=O)[C@H](CCCCNC(=N)N)NC(=O)[C@H](CC(C)C)NC(=O)[C@H](Cc1c[nH]c2ccccc12)NC(=O)[C@H](CCCN)NC(=O)[C@H](CCCCNC(=N)N)NC(=O)[C@H](CC(C)C)NC(=O)CNC(C)=O)C(=O)N[C@@H](CCCN)C(=O)N[C@@H](CCCCNC(=N)N)C(N)=O,broth microdilution,ATCC 25922,,,3.12 µM
CCCCCCCCCCCCCCCCCCCCCCSCC1OC(OC2C(N)CC(N)C(OC3OC(CN)C(O)CC3N)C2O)C(O)C(N)C1O (centres unmarked),,BL21(DE3) AAC(6')/APH(2''),,,> 150 µg/mL
CC[C@H](C)[C@H](NC(=O)CNC(=O)[C@H](CCCCN)NC(=O)[C@H](C)NC(=O)[C@H](CCC(=O)O)NC(=O)[C@H](Cc1ccccc1)NC(=O)[C@H](CO)NC(=O)[C@H](CC(C)C)NC(=O)[C@@H](NC(=O)[C@H](CC(=O)O)NC(=O)[C@H](C)NC(=O)[C@@H](NC(=O)[C@@H](N)C(C)C)[C@@H](C)O)C(C)C)C(=O)N[C@@H](C)C(=O)N[C@H](C(=O)N[C@@H](CC(N)=O)C(=O)N[C@@H](Cc1c[nH]cn1)C(=O)N[C@@H](CO)C(=O)N[C@@H](C)C(=O)N[C@H]1CSSC[C@@H]2NC(=O)[C@H](C(C)C)NC(=O)CNC(=O)[C@H](CC(N)=O)NC(=O)[C@H](CCC(N)=O)NC(=O)[C@H](C)NC(=O)[C@H](CO)NC(=O)CNC(=O)CNC(=O)[C@H](CCCCN)NC(=O)[C@H](CCCCN)NC(=O)[C@H](CCCNC(=N)N)NC(=O)[C@H](CC(C)C)NC(=O)[C@H](C)NC(=O)[C@H]([C@@H](C)CC)NC(=O)[C@H](CSSC[C@@H](C(=O)N[C@@H](CCCNC(=N)N)C(=O)N[C@@H](CC(N)=O)C(=O)O)NC(=O)[C@H](C(C)C)NC2=O)NC(=O)[C@H](Cc2c[nH]cn2)NC(=O)[C@H](CC(C)C)NC(=O)[C@H](C)NC1=O)C(C)C,broth microdilution,KCTC 1682,"16 h, 37 °C",,> 100 µM
CCCCCCSCC1OC(OC2C(N)CC(N)C(OC3OC(CN)C(O)CC3N)C2O)C(O)C(N)C1O (centres unmarked),,MC1061,,,150 µg/mL
CC[C@H](C)[C@H](N)C1=N[C@H](C(=O)N[C@@H](CC(C)C)C(=O)N[C@H](CCC(=O)O)C(=O)N[C@H](C(=O)N[C@H]2CCCCNC(=O)[C@H](CC(N)=O)NC(=O)[C@@H](CC(=O)O)NC(=O)[C@H](Cc3c[nH]cn3)NC(=O)[C@@H](Cc3ccc4ccccc4c3)NC(=O)[C@H]([C@@H](C)CC)NC(=O)[C@@H](CCCN)NC2=O)[C@@H](C)CC)CS1,broth microdilution,"ATCC 25922, LB medium","18 h, 37 °C, added: ZnSO4 0.3 mM",,> 64 µg/mL
Cc1cc(N)c2cc(NC(=O)c3ccc4cc(C5CC5)ccc4c3)ccc2n1,,hyperporinated wild type,,,50 µM
CC[C@H](C)[C@H](NC(=O)CNC(=O)[C@H](CC(N)=O)NC(=O)[C@H](CCCNC(=N)N)NC(=O)[C@H](CS)NC(=O)[C@H](CCCNC(=N)N)NC(=O)CNC(=O)CNC(=O)[C@H](CCCCN)NC(=O)[C@H](Cc1ccc(O)cc1)NC(=O)[C@H](CCCNC(=N)N)NC(=O)[C@H](CCCCN)NC(=O)[C@@H](NC(=O)[C@H](CC(C)C)NC(=O)[C@H](CS)NC(=O)[C@H](Cc1c[nH]cn1)NC(=O)[C@H](C)NC(=O)[C@H](C)NC(=O)[C@H](CS)NC(=O)[C@H](C)NC(=O)[C@H](CO)NC(=O)[C@H](Cc1c[nH]cn1)NC(=O)[C@H](CC(N)=O)NC(=O)[C@H](CC(C)C)NC(=O)[C@H](CO)NC(=O)CNC(=O)[C@H](Cc1c[nH]c2ccccc12)NC(=O)[C@@H]1CCCN1C(=O)[C@@H](NC(=O)[C@H](CO)NC(=O)[C@H](C)NC(=O)[C@H](CO)NC(=O)[C@H](CC(C)C)NC(=O)[C@H](CC(C)C)NC(=O)[C@H](CC(=O)O)NC(=O)[C@H](CS)NC(=O)[C@@H](NC(=O)[C@H](C)N)[C@@H](C)O)[C@@H](C)O)[C@@H](C)O)C(=O)N[C@@H](CS)C(=O)N[C@@H](CCCNC(=N)N)C(=O)N[C@@H](CS)C(=O)N[C@@H](CCCNC(=N)N)C(=O)N[C@@H](CCCNC(=N)N)C(N)=O,,DH5α,,,> 100 µg/mL
CC(C)(C)c1ccc(COc2cc3c(=O)c(C(=O)NCCNCCO)cn(Cc4ccccc4)c3cc2Cl)cc1,,ATCC 25922,,≥80% growth inhibition,< 0.25 µg/mL
CC[C@@H](C)[C@@H](NC(=O)[C@@H](C)NC(=O)[C@H](NC(=O)[C@@H](CC(=O)O)NC(=O)[C@@H](CCCCN)NC(=O)[C@@H](CO)NC(=O)[C@H](NC(=O)[C@@H](CC(N)=O)NC(=O)[C@@H](C)NC(=O)[C@H](NC(=O)[C@@H](CCC(=O)O)NC(=O)[C@@H](CCCCN)NC(=O)[C@H](NC(=O)[C@H](NC(=O)[C@@H](Cc1c[nH]cn1)NC(=O)[C@@H](CCCCN)NC(=O)[C@H](NC(=O)[C@@H](CCCCN)NC(=O)[C@@H](CCCCN)NC(=O)[C@H](NC(=O)[C@@H](CC(C)C)NC(=O)[C@@H](CCCCN)NC(=O)[C@@H](CC(N)=O)NC(=O)[C@@H](Cc1ccccc1)NC(=O)[C@@H](CCCNC(=N)N)NC(=O)[C@@H](CCCCN)NC(=O)[C@@H](CCCNC(=N)N)NC(=O)[C@@H](Cc1ccccc1)NC(=O)CN)C(C)C)C(C)C)[C@H](C)O)[C@H](C)CC)[C@H](C)O)C(C)C)C(C)C)C(=O)N[C@@H](C(=O)N[C@H](C)C(=O)NCC(=O)N[C@H](CO)C(=O)NCC(=O)N[C@@H](C(=O)N[C@H](C)C(=O)N[C@@H](C(=O)NCC(=O)N[C@H](C)C(=O)N[C@H](C)C(=O)N[C@H](CCSC)C(N)=O)C(C)C)C(C)C)C(C)C,,"isolate RKI 6 A-6, CAMHB",,,16 µg/mL
OB(O)c1ccc(OCc2ccccc2)nc1F,bacterial growth,CTX-M-14 ESBL clinical isolate,cefotaxime alone,,64 µg/mL
CCCCCCCCCCCCCCC(=O)N[C@@H](CCCCN)C(=O)N[C@@H](CCCCN)C(=O)N[C@@H](CCCCN)C(=O)N[C@@H](CCCCN)C(=O)N[C@@H](Cc1c[nH]cn1)C(N)=O,broth microdilution,"K12, water pH 7","18 h, 37 °C",,16 µg/mL
CCCO[C@H]1[C@H](O)[C@@H](N)[C@@H](O[C@H]2[C@H](O[C@@H]3O[C@H](CO)[C@@H](O[C@H]4O[C@@H](CN)[C@@H](O)[C@H](O)[C@H]4N)[C@H]3O)[C@@H](O)[C@H](N)C[C@@H]2N)O[C@@H]1CO,broth microdilution,clinical isolate AG 003,,,32 µg/mL
CCCCCCCCCCCCCCCCC(=O)N[C@@H](CCCCN)C(=O)N[C@@H](CCCCN)C(=O)N[C@@H](CCCNC(=N)N)C(=O)N[C@@H](CCCCN)C(=O)N[C@@H](CCCCN)C(N)=O,broth microdilution,"K12, water pH 7","18 h, 37 °C",,8 µg/mL
Cc1cc(N)c2cc(NC(=O)c3ccc4c(-c5ccccc5O)cccc4c3)ccc2n1,,ΔtolC efflux-deficient,,,6.25 µM
CCCCCCCCC(CCCCCC)C(=O)N[C@@H](CCCCN)C(=O)N[C@@H](CCCCN)C(=O)N[C@@H](CCCCN)C(=O)N[C@@H](CCCCN)C(=O)N[C@@H](CCCCN)C(N)=O (some centres unmarked),broth microdilution,K12,"16-24 h, 37 °C, prepared at pH 7",,16 µg/mL
CC[C@H](C)[C@H](NC(=O)[C@@H](Cc1ccccc1)NC)C(=O)OC[C@H](N)C(=O)N[C@H](CCCNC(=N)N)C(=O)N[C@@H](C(=O)N[C@H](C(=O)OC[C@H](N)C(=O)N[C@H]1C(=O)N[C@@H](C)C(=O)N[C@@H](C2CCCCC2)C(=O)N[C@@H]([C@@H](C)CC)C(=O)O[C@H]1C)[C@@H](C)CC)[C@@H](C)CC,broth microdilution,"ATCC 10798, Mueller-Hinton broth","16 h, 37 °C",,> 8 µg/mL
CC(C)C[C@H](NC(=O)[C@H](C)NC(=O)CNC(=O)[C@@H](NC(=O)[C@@H](NC(=O)[C@H](CCCCN)NC(=O)[C@H](CCCCN)NC(=O)[C@H](CC(C)C)NC(=O)[C@H](CC(C)C)NC(=O)[C@H](CCCCN)NC(=O)[C@H](CC(C)C)NC(=O)[C@H](CC(C)C)NC(=O)[C@@H](N)CCCCN)C(C)C)C(C)C)C(=O)NCC(N)=O,,"ATCC 25922, CAMHB","18 h, 37 °C",,11 µM
CC(C)C[C@@H]1NC(=O)[C@H](C)NC(=O)[C@H](NC(=O)[C@H](CO)NC(=O)[C@@H](CCCCN)NC(=O)[C@@H](CC(C)C)N(C)C(=O)[C@@H](N)Cc2ccccc2)[C@H](C)OC(=O)[C@H](CC(C)C)NC1=O,,ATCC 10798,TFA salt,,> 32 µg/mL
CC[C@H](C)[C@H](NC(=O)[C@H](CC(C)C)NC(=O)[C@H](C)NC(=O)[C@H](CO)NC(=O)[C@H](CCCNC(=N)N)NC(=O)[C@@H](N)CO)C(=O)N[C@H](C(=O)N[C@@H](Cc1c[nH]cn1)C(=O)N[C@@H](CCC(N)=O)C(=O)N[C@@H](CCCNC(=N)N)C(=O)N[C@@H](CC(C)C)C(=O)N[C@@H](Cc1ccccc1)C(N)=O)C(C)C,broth microdilution,Mueller Hinton broth,,,> 400 µg/mL

# For quick reference, copied from above:
SMILES,assay,test system,setting,scale,MIC
CC[C@H](C)[C@H](NC(=O)[C@@H](Cc1ccccc1)NC)C(=O)OC[C@H](N)C(=O)N[C@H](CCCNC(=N)N)C(=O)N[C@@H](C(=O)N[C@H](C(=O)OC[C@H](N)C(=O)N[C@H]1C(=O)N[C@@H](C)C(=O)N[C@@H](C2CCCCC2)C(=O)N[C@@H]([C@@H](C)CC)C(=O)O[C@H]1C)[C@@H](C)CC)[C@@H](C)CC,broth microdilution,"ATCC 10798, Mueller-Hinton broth","16 h, 37 °C",,> 8 µg/mL
